Results collected from several papers.
A part holds a random share of what one study measured.

Study 1 — method: RNA Bind-n-Seq; form: RNA; sample: in vitro; concentration: 1 µM; setting: whole 134-nt RNA, ends assumed; together with: 150 mM KCl; relative to: input library; reading: higher = stronger binding; measurement: log2 enrichment
Target: Ras GTPase-activating protein-binding protein 1, RRM domain (G3BP1, Homo sapiens, UniProt Q13283)
UniProt Q13283, sequence (whole entry, looked up): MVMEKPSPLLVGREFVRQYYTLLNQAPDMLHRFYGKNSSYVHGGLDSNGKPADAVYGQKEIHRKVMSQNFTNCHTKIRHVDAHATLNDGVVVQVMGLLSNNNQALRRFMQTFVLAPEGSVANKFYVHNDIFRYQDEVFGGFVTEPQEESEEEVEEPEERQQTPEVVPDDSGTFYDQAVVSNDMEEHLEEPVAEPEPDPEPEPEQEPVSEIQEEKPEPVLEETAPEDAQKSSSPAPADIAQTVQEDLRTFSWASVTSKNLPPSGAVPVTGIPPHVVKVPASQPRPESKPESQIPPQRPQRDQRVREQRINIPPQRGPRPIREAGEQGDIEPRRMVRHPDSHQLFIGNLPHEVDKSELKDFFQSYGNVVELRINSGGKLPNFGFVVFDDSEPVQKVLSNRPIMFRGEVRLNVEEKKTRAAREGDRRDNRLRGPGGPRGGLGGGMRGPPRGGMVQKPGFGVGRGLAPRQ
Constant ends, left off below: GGGAGUUCUACAGUCCGACGAUC … UGGAAUUCUCGGGUGUCAAGG
ACCAUGCAGGUGGGCAUCUUUGGGAAGUGGGGCAAGGGGGGGAUAGGGAGGGGGGUAACCCUUUGGGAACAGGUGGUCCCAGGUCGUUUC: 1.04
UCCUCAAGUCCUGUGCUACACAUCGUAUGUACCGAAUCGGUUUGGUGGUGGAAAGUAUUAUGUUACGCCGUUCGGAUCUGCACUUCCAGC: -0.185
CCUGUGCUACACAUCGUAUGUACCGAAUCGGAAAAAAAGGGAAAAAAAGGAAAAAAAGGGAAAGUAUUAUGUUACGCCGUUCGGAUCUGC: 0.182
UUUUAAAGUGUUCUCCACCACACUUGGGCAUUUAUCUGUUUCUUUAAAUGGCCUUCUCUGUUUCUUGUUUGCAGGCAGCUAUCAAUGGUG: -0.173
UUACAUUACCUGGUGAAAUAGACAUUGACAGUAUCUCCUAUGAAGAGCUUUCACCACCUGAUGAAGAGCCUGCCAAGAAUAAAAAGGAAA: -0.00513
CUCAAGUCCUGUGCUACACAUCGUAUGUACCGAAUCGGGGUGGGUGGGGUGGGAAAGUAUUAUGUUACGCCGUUCGGAUCUGCACUUCCA: -0.0764
AAGUCCUGUGCUACACAUCGUAUGUACCGAAUCGGAAAGGUUUUUGGUUUUUUUGGAAAGUAUUAUGUUACGCCGUUCGGAUCUGCACUU: -0.349
UCGGCUACACUGCCCGGAGAAUUCUCAAUGAGGAUGGCAGCCCUAACCUGGACUUCAAGCCUGAAGACCAGCCCCAUUUUGACAUCAAGG: -0.0215
CUCAAGUCCUGUGCUACACAUCGUAUGUACCGAAUCGGGUUGGGUUGGUUGGGGAAAGUAUUAUGUUACGCCGUUCGGAUCUGCACUUCC: 0.261

Study 2 — method: aptamer microarray, sandwich; form: DNA with 2'F-ANA; sample: in vitro; concentration: 200 nM; together with: Cy3 exosite-II aptamer, 400 nM; reading: higher = stronger binding; measurement: mean fluorescence intensity; oligonucleotide: GGTTGGTGTGGTTGG
Target: Prothrombin, mature alpha-thrombin (F2, Homo sapiens, UniProt P00734)
Setting: whole 15-mer aptamer, many near background
2'F-ANA at 1 7 8 9 10 11 12 13 14 15: 96.1 a.u.
2'F-ANA at 1 4 7 9 10 12 14 15: 48.7 a.u.
2'F-ANA at 3 4 5 8 9 12 15: 225 a.u.
2'F-ANA at 2 3 4 8 10 11 13 14 15: 148 a.u.
2'F-ANA at 1 3 4 5 6 7 8 12 13: 85.5 a.u.
2'F-ANA at 1 8 9 11 12: 350 a.u.
2'F-ANA at 1 2 4: 162 a.u.
2'F-ANA at 1 2 3 9 11: 237 a.u.
2'F-ANA at 1 3 4 11 12 13 14: 87.9 a.u.
2'F-ANA at 2 3 6 10 12 13 15: 360 a.u.
2'F-ANA at 2 4 5 7 9 10 11 15: 146 a.u.
2'F-ANA at 1 2 6 9 14 15: 54.7 a.u.
2'F-ANA at 1 3 4 6 7 8 11 12 13 15: 258 a.u.
2'F-ANA at 1 2 3 6 8 10 14 15: 53.6 a.u.
2'F-ANA at 1 4 5 6 7 8 13: 54.9 a.u.
2'F-ANA at 2 4 5 7 11 12 13 14: 48 a.u.
2'F-ANA at 1 2 4 5 6 7 9 10 13 14: 49.9 a.u.
2'F-ANA at 1 6 7 9 10 12 14: 96.2 a.u.
2'F-ANA at 3 4 6 8 11: 562 a.u.
2'F-ANA at 1 2 4 5 6 9 12: 133 a.u.

Study 3 — method: RNA Bind-n-Seq; form: RNA; sample: in vitro; concentration: not given; relative to: input RNA pool; reading: higher = stronger binding; measurement: bound/input enrichment
Target: RING finger protein unkempt homolog, zinc fingers 1-6, GST-SBP tag (UNK, Homo sapiens, UniProt Q9C0B0, residues 30-357)
Setting: RNA with constant flanks, human and mouse sites, ends assumed
Constant ends, left off below: GGGAGUUCUACAGUCCGACGAUC … CAACAGAGGAUUGAGCAUCA
Construct (chain): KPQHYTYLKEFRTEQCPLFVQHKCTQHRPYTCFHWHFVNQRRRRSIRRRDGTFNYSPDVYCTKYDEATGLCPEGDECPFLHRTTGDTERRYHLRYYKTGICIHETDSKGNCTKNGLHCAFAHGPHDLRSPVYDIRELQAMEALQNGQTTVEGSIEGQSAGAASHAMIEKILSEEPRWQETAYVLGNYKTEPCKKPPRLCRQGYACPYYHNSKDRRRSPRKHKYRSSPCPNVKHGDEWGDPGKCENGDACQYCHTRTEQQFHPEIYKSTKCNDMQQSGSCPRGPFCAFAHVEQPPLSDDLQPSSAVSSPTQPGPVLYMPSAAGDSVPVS
GGGCAGUUUGCGUUCCAUGUUGGUCUUCCUGCAAAAUCUGGAGUUGCUGGGGGUAUUCUUUUAGUUGUCCCCAACGUCAUGGGCAUGAUGUGUUGGUCUCCUCCUCUUGACAAGAUGGGC: 0.269 ratio
CUCCUCUUUCUUUCCUUUCUUUCCUCCCUUUUUCCCGUCUGACCCCAAACGUUAUUGUCCAAACAUGACUGGACAGCAGCUUUUGUUUCUUGACCCUGUAAUAUGACAGUCUGCUAAUAU: 0.809 ratio
GAUGUUACCCAGGAGGAGCUCGGUGGUGCCAAGACCCACACCACCAUGUCAGGUGUGGCCCACAGAGCUUUUGAAAAUGAUGUUGAUGCCUUGUGUAAUCUCCGGGAUUUCUUCAACUAC: 0.0961 ratio
CUUGUACCCAACACAAAAAAUGGAAACAUAUACACUCCCCUACUUACCAUUGCCUACAGUGACAUUGACAUCAAAAAUGCUCAUAGCCAGUCUGCGAAGAUUUCCUUCUCAGUGAAGUAU: 0.285 ratio
AAAAAGGGACACCCAAGCUAUGCACCACCCAAACGCAUGCGUCGUAAAACUGAAUUCUCUUCCACGGCAAAGGCUAAAGCCCGUUUCUUUGGAAAACGAGAUUUUAGGAGCAGGCUUCUC: 0.176 ratio
AGCCCAGUGAAUGGAAAACUUUCCGUGACUAAACCUGUCCUACAAAGUACCAUGAGAAAUGUCGGUUCAGAUAUUGCUGUGCUAAGGAGACAGCAACGUAUGAUAAAAAAUCGAGAAUCC: 0.141 ratio
UUUGUUUCCAGGGACAAAUUAAAUUUGUAUGAUUACCCAAAAAAGGGUCUCAGUUUACAGAUGCUAACUCUAUAUAAAGGAAUGUGGAAAAACUCAGUUCUUAAGUUACAAGAUUAAAAA: 0.147 ratio
GAGCUGUUAAGUGAGGAAAACAAGGAAAAUGGGAUAAUUAAAACUGUGAAUGAAGACGUAGAAGAGAUGGAAAUUGAUGAACAAACAAAGGUCAUAGUAAAAGACAGACUUUUGGGGAUA: 1.09 ratio

Study 4 — method: RNA Bind-n-Seq; form: RNA; sample: in vitro; concentration: 365 nM; relative to: no-protein control; reading: higher = stronger binding; measurement: RBNS enrichment (R)
Target: RNA binding protein fox-1 homolog 2, RRM domain, GST-SBP tag (RBFOX2, Homo sapiens, UniProt O43251-10, residues 100-194)
Setting: natural RNA segment, single round, ends assumed
Constant ends, left off below: GGGAGUUCUACAGUCCGACGAUC … UGGAAUUCUCGGGUGCCAA
GAAAAAGCCUAGGAGUACUGGCAGUGGAUGAACAAUUUCACCAAACAUCCAGCUUUUUUCCUGCCUCCCUCUGAAUUCUCCAGGAUCUGCUUCACCCUCACCACCACCAC: 0.55
AACAGCCCAGUGAGGCUGAAGUUCUCUUGUAGAAAUUCCUUUCCUGGGUAAAGUGAUGAGCCAUGUUUAUCUACUGAUCAGCUUCAUCAAAUUCGCAUCUAACUGAAUGG: 0.38
UUGUCAUGAUUGCAGACUACAGAUCUGCUUUUUGAAAUGAAAUUUAAACAUUAAAAAUGGAACUGUGUUCUUAGACUCUUUACUGAAGGUGAAACCGUAGUGAAAGCUCC: 0.437
UUUUACCAAACAGUAUUUACUCGUGAUGUGCGUAGUGCAUUCUGAUAUUUUUGAGCCAUUCUAUUGUGUUCUACUUCACCUAAAAAAAUAAAAUAAAAAUGUUGAUCAAG: 0.419
GAUCUUUUUUUUUUUUUUUUUUAAAGAAGAAAAGAAAGAAACGAAAAGAAAAAGCUGAAGAAAUCAAGAACCAAUUGAAAUUCCUUUGGACACUUUUUUUUUUUUGUCUG: 0.457
GAUAUAUUUUUACAAUCCUGCAAACUUCCUUGAGUCACUCACGACUCCCCCUGAGGUCACUUCCUGGUAGUGUCCCAAUGCUCUGUGUGCAGUUACUUCAGGUUGAAGUU: 0.393
CAUGGGGCUGGACCUGCCCGAUGGGGGCCAGCUCACCCACGGCUACAUGUCUGACGUCAAGCGGAUAUCAGCCACGUCCAUCUUCUUCGAGUCUAUGCCCUAUAAGCUCA: 0.888
UUCAAGGAAAGUAUAGCGUCUAUGGAGUUCAGAGGGCACGUGUUUGGGGGAAAAUAUAUAUGACAUGAAGAAGAAGAUGAAGAAAAAUGAGAAAAAAACACACAAAAGGC: 2

Excerpt of the above (study 1):
ACCAUGCAGGUGGGCAUCUUUGGGAAGUGGGGCAAGGGGGGGAUAGGGAGGGGGGUAACCCUUUGGGAACAGGUGGUCCCAGGUCGUUUC: 1.04
UCCUCAAGUCCUGUGCUACACAUCGUAUGUACCGAAUCGGUUUGGUGGUGGAAAGUAUUAUGUUACGCCGUUCGGAUCUGCACUUCCAGC: -0.185
CCUGUGCUACACAUCGUAUGUACCGAAUCGGAAAAAAAGGGAAAAAAAGGAAAAAAAGGGAAAGUAUUAUGUUACGCCGUUCGGAUCUGC: 0.182
UUUUAAAGUGUUCUCCACCACACUUGGGCAUUUAUCUGUUUCUUUAAAUGGCCUUCUCUGUUUCUUGUUUGCAGGCAGCUAUCAAUGGUG: -0.173
UUACAUUACCUGGUGAAAUAGACAUUGACAGUAUCUCCUAUGAAGAGCUUUCACCACCUGAUGAAGAGCCUGCCAAGAAUAAAAAGGAAA: -0.00513
